Results pooled from the literature.
Compare with care: the assays were run in different laboratories. “And” joins repeats or separate records; there may be more than shown. ± marks the error that the study gave. In brackets after ≈: the same amount, converted by molar mass. Ends that are not written are not given here. * marks the point of attachment.

`insulin`: “baseline 18F-FDG SUV” 0.222 ± 0.232 (PET imaging; CD IGS rat, ipsilateral lateral gastrocnemius; intra-arterial (left femoral), 0.34-0.346 IU/kg).
`COc1ccc(-c2nnc(COc3cc(-c4nc5ccccc5s4)ccc3OC)o2)cc1` — result for “minimal effective dose”: 300 mg/kg (seizure protection; albino mouse, scPTZ-induced seizure; ip, 0.5 h).
`CC(C)[C@H](NS(=O)(=O)c1ccc(-c2ccc(Br)cc2)cc1)C(=O)O`: “troponin I release” 42.2 ± 11.1 ng/mL (item: troponin I in coronary effluent; rat, isolated perfused stunned heart; dose not given, 20-25 min ischaemia, 5 min reperfusion).
`neuropeptide Y`: “time to peak tachycardia” 12.1 ± 3.9 min (Sprague Dawley rat, urethane-anaesthetised; intravenous, 5 nmol).
`Nc1cc2c3ccccc3ccc2c2ccccc12`: “menadione reductase activity” 22.9 enzyme units (inducer; female rat, liver; oral, 1 mg, 24 h, sesame oil vehicle).
`Cc1cc(C)c(/C=C2\C(=O)Nc3ccccc32)[nH]1` — result for “sustained stable disease”: 25% (human, pediatric refractory CNS tumours; dose not given, stratum I; baseline: patients).
For `CC1(C)C(/C=C/C=C/C=C/C=C2\N(CCCCS(=O)(=O)O)c3ccc4ccccc4c3C2(C)C)=[N+](CCCCS(=O)(=O)[O-])c2ccc3ccccc3c21`, “concordance with iRFP signal” read 12% (ex vivo NIR imaging; MDA-MB-231-iRFP, mouse xenograft; intravenous, 0.5 mg/kg, 24 h).
With `Cc1cnc(-c2ccnc(C(C)(C)O)n2)cc1-n1c(C)cc(OCc2ncc(F)cc2F)c(Cl)c1=O` the IC80 was 0.0626 µg/mL (≈ 0.122 µM) (TNF-α release, inhibitor; human, whole blood, ex vivo; plasma concentration, together with: LPS).
`CC(C)(O)CNc1nc(Nc2ccnc(C(F)(F)F)c2)nc(-c2cccc(C(F)(F)F)n2)n1` — result for “plasma 2-HG trough reduction”: 37.8% (item: 2-hydroxyglutarate; human newly diagnosed mIDH AML; oral, 100 mg once daily, induction cycle 1 day 1, together with: induction chemotherapy).
With `COc1cccc2c1C(=O)c1c(O)c3c(c(O)c1C2=O)C[C@@](O)(C(=O)CO)C[C@@H]3O[C@H]1C[C@H](N)[C@H](O)[C@H](C)O1` the tumour volume was 80.4 ± 46.5% (mice, BT-474 xenograft; intraperitoneal, 1.5 mg/kg, week 7, after sixth treatment; baseline: pretreatment).
`O=C(/C=C/c1ccc(O)c(O)c1)OCCc1ccc(O)cc1` has a radical scavenging of 59% (DPPH; ethanol; 20 µM, 30 min, room temperature).
`Cn1c(-c2ccc(C(N)=O)cc2F)nnc1C(C)(C)Oc1c(F)cc(Cl)cc1F` has an AUC(0-inf) range of 652 to 1980 ng·h/mL (young Japanese subjects, plasma; oral, 10 mg single dose, day 1).
`COc1ccc(-c2nc3ccccc3s2)cc1OCc1nnc(-c2ccc([N+](=O)[O-])cc2)o1`: “minimal effective dose” 30 mg/kg (hind limb tonic extension; albino mouse, MES-induced seizure; ip, 0.5 h).
`CC(/C=C/C(=O)NO)=C\[C@@H](C)C(=O)c1ccc(N(C)C)cc1`: “serum IL-1β reduction” 79% (inhibitor, ELISA; wild-type mice, serum; dose not given, 2 h after LPS, daily dosing from day -2, LPS on day 0, together with: LPS; baseline: LPS-treated vehicle).
`C[C@H]1C[C@H]2CSC(N)=N[C@@]2(c2nc(NC(=O)c3ccc(OC(F)F)cn3)cs2)CO1`: “change from baseline” -78.9% (item: CSF Aβx-40; healthy adults; 125 mg once daily, 14 days, day 15; baseline: placebo-adjusted baseline).
`CC(=O)O[C@H]1[C@H]2[C@H]([C@@H]3[C@@H](O)[C@@H]4[C@H]([C@H](C)[C@H]5O[C@]56OC(=O)[C@@](C)(O)[C@]46C)[C@@]3(C)[C@H]1OC(C)=O)[C@@H](OC(=O)CC(C)C)C(=O)[C@H]1C[C@@H]3O[C@@H]3[C@H](OC(C)=O)[C@]21C`: “time to tumour volume” 19 to 38 days (mice with NCI/ADR-RES xenograft; intratumoral, 20 µg, tumour reached 1500 mm3 from 338-450 mm3).
Under “menadione reductase activity”, `c1ccc2c(c1)ccc1c3ccccc3ccc21` is recorded as 38.2 enzyme units (inducer; female rat, liver; oral, 10 mg, 24 h, sesame oil vehicle).
`CCCCC/C=C\C/C=C\CCCCCCCC(=O)O`: “serum total bilirubin” 1.9 mg/dL (neonatal hUGT1 mice; oral, dose not given, 48 h).
Under “OGTT glucose AUC reduction”, `CN(C(=O)c1c(Oc2ccc(F)cc2)nc2ncccn12)c1ccc(Cl)cc1` is recorded as 16.6% (mouse C57BL/6J diet-induced obese; oral, 9 mg/kg once daily, week 4, AUC 0 to 120 min, together with: sitagliptin 1 mg/kg; baseline: vehicle).
With `CC(C)(O)c1ccccc1-c1ccc2[nH]c(/C=C/c3ccc(C(F)(F)F)cc3)nc2c1` the plasma concentration was greater than 50 ng/mL (human, UVB-sensitized skin; max heat pain tolerance).
`Cc1c(OCC(F)(F)F)ccnc1C[S@@+]([O-])c1nc2ccccc2[nH]1` — result for “mean intragastric pH”: 4.2 (healthy humans; oral, 60 mg, 0 to 12 h postdose, single dose).
The inhibition of `CC(C)c1nc(CN(C)C(=O)N[C@H](C(=O)N[C@@H](Cc2ccccc2)C[C@H](O)[C@H](Cc2ccccc2)NC(=O)OCc2cncs2)C(C)C)cs1` is reported as -3 to 11% (lopinavir intrinsic clearance, interaction modelling; human; dose not given, unbound cpd concentration percentile).
The IC50 of `Cc1ccc(C(=O)N(C(=O)c2ccc(C)cc2)C(=S)N2N=C(c3ccc(F)cc3)CC2c2ccc(F)cc2)cc1` (centres unmarked) is reported as 105 µM (DPPH scavenging, absorbance).
`CCCCC[C@H](O)/C=C/[C@H]1[C@H](O)CC(=O)[C@@H]1C/C=C\CCCC(=O)O`: “Ca2+ store content” “no effect” (human airway smooth muscle cells; 10 µM, 5 min, Ca2+-free buffer).
`c1ccc2cc3c(ccc4ccccc43)cc2c1` gave a non-protective dose of 0.5 mg (adrenal apoplexy prevention; rat; oral, together with: 7,12-DMBA 5 mg i.v.).
For `COCCc1ccc(OCC(O)CNC(C)C)cc1` (centres unmarked), “Cx43 protein level” read 0.49 ± 0.05 (western blot; rats, adrenaline arrhythmia, myocardium; intragastric, 2.57 g/kg daily, 14 days, unit not given; baseline: GAPDH).
The GST activity of `CC(C)=CCOc1c2occc2cc2ccc(=O)oc12` is reported as 260% (female SENCAR mice, liver cytosol; oral, 70 mg/kg, 4 days, together with: CDNB substrate; baseline: corn oil vehicle, maximum induction).
For `Cc1c2ccccc2c(C)c2c1ccc1ccccc12`, “menadione reductase activity” read 316% (inducer; rat, liver; intravenous, 5 mg at 0 h and 5 mg at 24 h, 48 h; baseline: untreated control).
Under “paw edema inhibition”, `c1ccc(CN(Cc2cccc(CN(Cc3ccccc3)CC3CC3)n2)CC2CC2)cc1` is recorded as less than 20% (mouse carrageenan paw edema; ip, 10 mg/kg daily, 74 h; baseline: vehicle).
Under “minimal effective dose”, `COc1ccc(-c2nc3ccccc3s2)cc1OCc1nnc(Cc2ccccc2)o1` is recorded as 100 mg/kg (hind limb tonic extension; albino mouse, MES-induced seizure; ip, 0.5 h).
The radical scavenging of `O=C(/C=C/c1ccc(O)c(O)c1)Oc1ccccc1` is reported as 67% (DPPH; ethanol; 20 µM, 30 min, room temperature).
For `O=C(/C=C/c1cc(F)cc(F)c1)c1ccc[nH]1`, distance travelled read “decreased” (zebrafish larvae, PTZ seizure model; 8.58 µM, 1 h, 5 dpf larvae, together with: 2.5 mM pentylenetetrazole; baseline: PTZ alone).
For `WLLPGTSTV`, “tetramer-positive CD8+ T cells” read 66.1% and 66% (agonist tetramer binding, flow cytometry; peptide, CD8+ T cells primed with compound, human; dose not given, 10 days).
`NCCS(=O)(=O)O` has an EC20 of greater than 800 µM (mitochondrial swelling; BALB/cByJ female mouse liver mitochondria; 30 min, together with: succinate + rotenone; baseline: CaCl2 maximal swelling).
`COc1ccc(-c2nc3ccccc3s2)cc1OCc1nnc(-c2c(OC)cccc2OC)o1` — result for “minimal effective dose”: 100 mg/kg (hind limb tonic extension; albino mouse, MES-induced seizure; ip, 4.0 h).
For `O=C1O[C@H]([C@@H](O)CO)C(O)=C1O`, the EC50 was 2110 µM (ABTS scavenging, absorbance).
`COc1ccc(-c2nc3ccccc3s2)cc1OCc1nnc(-c2ccc(Cl)cc2)o1` — result for “minimal effective dose”: 100 mg/kg (hind limb tonic extension; albino mouse, MES-induced seizure; ip, 0.5 h).
`Palmitoyl-SMTSCAPS (N-palmitoyl; Palmitoyl = CCCCCCCCCCCCCCCC(=O)*)` gave a tumour volume of 386 ± 95 mm³ (AsPC-1, male SCID mice, subcutaneous AsPC-1 xenograft; intratumoral, 500 µg/mouse/day, 3 weeks, PBS with 80% DMSO vehicle).
`O=C(/C=C/c1cc(O)ccc1O)OCCc1ccccc1` gave a radical scavenging of 67% (DPPH; ethanol; 20 µM, 30 min, room temperature).
For `O=C1c2c(O)cc(O)cc2O[C@H](c2cc(O)c(O)c(O)c2)[C@H]1O`, “tonic GABA-A current” read 60 ± 2.2 pA (patch clamp; rat, hippocampal dentate granule cells; oral, 1 mg/kg, 48 h after withdrawal, together with: ethanol 5 g/kg gavage, bath ethanol 60 mM).
`glutathione` gave an IC50 of less than 15 µg/mL (hydroxyl radical scavenging; 60 min, pH 7.4).
For `COc1ccc(-c2nc3ccccc3s2)cc1OCc1nnc(C(c2ccccc2)c2ccccc2)o1`, “minimal effective dose” read 300 mg/kg (seizure protection; albino mouse, scPTZ-induced seizure; ip, 4.0 h).
`C#CCN(C)Cc1ccccc1` has an EC20 of greater than 400 µM (mitochondrial swelling; BALB/cByJ female mouse liver mitochondria; 30 min, together with: succinate + rotenone; baseline: CaCl2 maximal swelling).
For `insulin aspart`, “AUC glucose infusion rate” read 815 mg/kg (euglycaemic clamp; type 1 diabetes patients; subcutaneous, 0.2 U/kg single, 2 h to 12 h, antibody quartile 3, 6.65-15.68 %B/T).
Under “IL-2 only cells”, `SIYNFEKL` is recorded as 19.5% (flow cytometry, item: CD44hi CD8+ T cells; peptide, OT-I CD8+ T cells, mouse; dose not given, primed 5 days, restimulated 100 ng/mL OVA257, together with: no TGF-β1).
`COc1ccc(-c2nc3ccccc3s2)cc1OCc1nnc(-c2c(C)cccc2C)o1`: “minimal effective dose” 300 mg/kg (seizure protection; albino mouse, scPTZ-induced seizure; ip, 4.0 h).
`CS/C(S)=N/CCCC[S+](C)[O-]` (racemic) — result for “mRNA fold change”: 2.32 (RT-PCR, item: Nos2 (inducible); rat, colon; oral gavage, 200 mg/kg, 96 h, dosed for four days; baseline: vehicle).
`COc1ccc(-c2nc3ccccc3s2)cc1OCc1nnc(-c2ccc(O)cc2)o1`: “minimal effective dose” 30 mg/kg (seizure protection; albino mouse, scPTZ-induced seizure; ip, 0.5 h).
`difelikefalin`: “NRS itch score change” -3.64 (Japanese haemodialysis patients with pruritus; intravenous, 1.0 µg/kg thrice weekly, week 8; baseline: baseline, direction not given).
For `CC(C)NC[C@@H](C(=O)N1CCN(c2ncnc3c2[C@H](C)C[C@H]3O)CC1)c1ccc(Cl)cc1`, “stable disease or incomplete response” read 34% (human solid tumour patients; oral, 25 to 800 mg, all dosing cohorts).

Repeated from above:
`CS/C(S)=N/CCCC[S+](C)[O-]` (racemic) — result for “mRNA fold change”: 2.32 (RT-PCR, item: Nos2 (inducible); rat, colon; oral gavage, 200 mg/kg, 96 h, dosed for four days; baseline: vehicle).
For `COCCc1ccc(OCC(O)CNC(C)C)cc1` (centres unmarked), “Cx43 protein level” read 0.49 ± 0.05 (western blot; rats, adrenaline arrhythmia, myocardium; intragastric, 2.57 g/kg daily, 14 days, unit not given; baseline: GAPDH).
`COc1ccc(-c2nc3ccccc3s2)cc1OCc1nnc(-c2ccc(O)cc2)o1`: “minimal effective dose” 30 mg/kg (seizure protection; albino mouse, scPTZ-induced seizure; ip, 0.5 h).
Under “IL-2 only cells”, `SIYNFEKL` is recorded as 19.5% (flow cytometry, item: CD44hi CD8+ T cells; peptide, OT-I CD8+ T cells, mouse; dose not given, primed 5 days, restimulated 100 ng/mL OVA257, together with: no TGF-β1).
